Measured values of several laboratories.
Numbered parts are unrelated; each lists some results of a single study. Changes are numbered by the printed parent chain.

Study 1 — target: CREM, bZIP domain (human); technique: DHFR protein complementation; matrix: yeast; baseline: wild-type JUN-FOS pair; reading: higher = stronger binding; endpoint: binding fitness
Setting: single substitutions, most at no-binding floor
Parent: JUN, bZIP domain (human); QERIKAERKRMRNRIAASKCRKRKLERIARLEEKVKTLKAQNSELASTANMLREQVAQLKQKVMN; partner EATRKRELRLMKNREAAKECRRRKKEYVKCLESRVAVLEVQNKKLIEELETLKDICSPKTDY
T37R: -1.35 natural log
M51R: -1.44 natural log
M51Q: -1.48 natural log
T37N: -1.43 natural log
A46G: -1.48 natural log
A57G: -1.43 natural log
E44P: -1.48 natural log
L52T: -1.5 natural log
R30G: -1.47 natural log
Q41K: -1.46 natural log
A57L: -1.45 natural log
K34C: -1.61 natural log
S43G: -1.39 natural log
V56K: -1.49 natural log
R30W: -1.51 natural log
A57P: -1.56 natural log
E54H: -1.47 natural log
A46V: -1.41 natural log
T48V: -1.53 natural log
E32S: -1.56 natural log
E44I: -1.34 natural log

Study 2 — technique: RNAcompete; form: RNA; matrix: in vitro; concentration: 20 nM; setting: 7-mer, probes averaged, single round; baseline: mean of 7-mers; reading: higher = stronger binding; endpoint: 7-mer Z-score
Target: PABPC1L2, full length, GST fusion (mouse, UniProt A0ABA7IW68)
Target sequence (chain): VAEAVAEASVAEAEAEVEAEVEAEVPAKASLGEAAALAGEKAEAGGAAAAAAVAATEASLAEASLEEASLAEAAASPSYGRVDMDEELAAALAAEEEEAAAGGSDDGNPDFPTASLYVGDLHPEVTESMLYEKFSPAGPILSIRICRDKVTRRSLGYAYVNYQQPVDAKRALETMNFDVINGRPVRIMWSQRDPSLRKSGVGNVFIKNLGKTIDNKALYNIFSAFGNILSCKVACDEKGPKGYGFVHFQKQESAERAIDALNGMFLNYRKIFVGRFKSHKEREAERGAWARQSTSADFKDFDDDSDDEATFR
CUUUCAA: -0.05
GGUCAAG: 0.0642
CAUCAGA: 0.0623
AGUUGAG: -0.199
CAUGUGU: -0.277
CGAGACG: 0.0261
AUGACGU: -0.175
UCAAUAC: -0.173
CGGUAUC: -0.148
CCCGAAU: -0.219
GCGUACA: -0.0899
GCCUUUC: -0.489
AACUAUU: 0.146
UGACGUG: -0.128
GCAUGUU: -0.251
UCUUCCA: -0.378

Study 3 — technique: RNA Bind-n-Seq; form: RNA; matrix: in vitro; concentration: 365 nM; baseline: no-protein control; reading: higher = stronger binding; endpoint: RBNS enrichment (R)
Target: RNA binding protein fox-1 homolog 2, RRM domain, GST-SBP tag (RBFOX2, Homo sapiens, UniProt O43251-10, residues 100-194)
Setting: natural RNA segment, single round, ends assumed
Constant ends, left off below: GGGAGUUCUACAGUCCGACGAUC … UGGAAUUCUCGGGUGCCAA
Construct (chain): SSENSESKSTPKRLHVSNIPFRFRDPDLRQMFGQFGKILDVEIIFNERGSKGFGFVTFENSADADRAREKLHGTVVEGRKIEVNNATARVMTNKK
UCAUGAAUGUGCUGGUGAACACUGUGACCAGGCUUUUGUAGAUGGCGAUGUGUUAUAGACGGUGCUCACUCCCAAGGGACAGCAAGUGAGCAGAGAUGUACUGCAAAGUC: 2.81
ACCGUAUCAUGUGGUGGCUUUAUUUCUACACUUCUUGCCCACCAUGGAUGGCCUGAAGAAGCUGUUCUCCAGCCACAACAACCACAGAAAGCCCCUCGCUCUCCCCUCUC: 0.321
UUUGUACAUUUUUGUAUGUUAAUUUAUGAAUGAUUUUUUCAGUAAAAAAUACAUAUUCAAGAACCAACCUUGGUGGUCAUUUCUCUUUGUGUAGGACAGUUUGGGUCCUU: 0.534
AUUCAUCGUGUCCCUGUUUGAACGUUUAGCACAAAAGUCUUAAUAGCACAACACAAAUUCCAUCCAAGAGGAGACUCUUUCCCAUGGUGUUGUCCUGGGUCUGGCAGUGG: 0.723
UAUGCCUAAGUUAACAGUGGAUAAAAGACUUUUCUGUAAACAACUCCAGUAAUAAAUAUCAUGAACUAUAUGGUUUUUGUAUUCAUUUGUUUCUGAAAAAUGUGCAUUAU: 0.667
ACUGCUGUCUGAGCACUAGAAAUUUCUAAUGGAAAGAGGCCUCUGAAUGGCUAAGGGAACAUCUGGAAAGGAAGGAAAAUGAGCCCUAAAGGUUUUUUGGUUGCUUGUUU: 0.479
UGGUCGUAGAACCUUUUCCAAACAGAAGCAUCUGCCUUUGGCUGUUCUGUGACCUUUGAAGCCAGUCUCAGUGGUUUAGGCAGCUUUGCAGUUCUAACUCUAGCUAGAGG: 0.326
UGUCACCUGCUGUGAUUCCUAGAGUCAGAAUCAGACUGCAGUGGCCACAGGCACAAGUGGGAAGUGAUGCAGCUCAAAGGUUUGGAUGAGAUGGGAUGUGCAGCGAUUGA: 1.04
UUGACCAGAUGUUCCAAAAUAUCUGCAUCCACCUGGAGAUGCAGCUAAGUGGGUCCUUAUGUACACACCACGUUCACACACACACAGAGGGACCACGUGUGCACGCAUGA: 2.23
CCUUUUAUGGGAGUGCAGUGCUCCUUACACAAAUACAAAGGGAAGAAGAGCCAGCAGUUGAGGCUCCUCAGUUUUAGUGCUGAAAUAAUAAACAGUGACAGGUCAACAGU: 0.657
CUGUGUAGCCCUUUGGAUUCAGCCUGUGGAUGUCCACUCAUCCCUGCAGGCUCCUACUGCCCAUGCUGUGGCUGGAUUAAACAGCACGGGGUCUGAUAGAAAACGGGACU: 0.423
UGCUUGUAUUCUCGGACCUGGACUCUGACAUGCAGAGAAGAGCUGACCGUCCUGGUGAGGACCACUGACUCAGAUAAUGCACUUUCCCCUCUGAUCCUGGACUCCCCAUG: 5.31

Study 4 — technique: protein binding microarray; form: double-stranded DNA, one strand shown; matrix: in vitro; concentration: not given; baseline: not given; reading: higher = stronger binding; endpoint: E-score
Target: Histone acetyltransferase KAT6A, winged helix 2, GST fusion (KAT6A, Homo sapiens, UniProt Q92794, residues 85-181)
Setting: 8-mer, flanks averaged, mean of 2 arrays, mostly near background
Target sequence (chain): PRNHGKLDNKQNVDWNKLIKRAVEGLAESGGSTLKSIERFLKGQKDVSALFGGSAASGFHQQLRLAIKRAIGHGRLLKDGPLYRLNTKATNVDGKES
AAGACAGA: -0.0239
TGGGGAAA: -0.0055
AATACTAA: 0.00278
AACGCAGG: 0.0938
CCAGGAAG: -0.119
AAACGACT: 0.0395
CCCACAAC: 0.141
AACTTGGC: -0.073
ATAGTTCG: -0.0401
CAGCGAGA: -0.0415
GCGTCAGA: -0.0947
GCCCTCCA: 0.0231
AACTTCTC: -0.0625
AGGATCTG: -0.173
ATATTGTC: -0.144
AACATACG: -0.0287
ATTCCTGC: 0.0515
GTGCGTAA: 0.00563
CCATACTA: 0.0888
GAGTACCC: -0.122

Study 5 — technique: DHFR PCA, deep sequencing; matrix: yeast; added: (+)-ABA 4.8 µM; baseline: wild-type fitted maximum; reading: higher = stronger binding; endpoint: relative binding score
Target: ABI1, truncated, D143A, DHFR fusion (Arabidopsis thaliana)
Setting: methotrexate growth selection, single substitutions
Parent: PYL1, truncated, DHFR fusion (Arabidopsis thaliana); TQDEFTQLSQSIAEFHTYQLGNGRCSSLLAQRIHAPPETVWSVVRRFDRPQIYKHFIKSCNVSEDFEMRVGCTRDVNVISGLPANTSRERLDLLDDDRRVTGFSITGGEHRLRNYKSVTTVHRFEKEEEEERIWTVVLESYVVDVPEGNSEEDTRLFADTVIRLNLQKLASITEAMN; partner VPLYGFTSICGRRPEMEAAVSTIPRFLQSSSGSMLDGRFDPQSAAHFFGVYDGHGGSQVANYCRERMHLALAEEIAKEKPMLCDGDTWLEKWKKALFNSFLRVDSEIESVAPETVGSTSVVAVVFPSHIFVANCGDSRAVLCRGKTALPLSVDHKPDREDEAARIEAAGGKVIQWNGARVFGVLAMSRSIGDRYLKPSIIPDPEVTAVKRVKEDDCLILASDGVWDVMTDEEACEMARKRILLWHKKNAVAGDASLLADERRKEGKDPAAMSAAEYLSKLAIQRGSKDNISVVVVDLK
D75Q: 82.3%
K58T: 35.4%
A30N: 27.4%
F15N: 19.7%
S26M: 47.4%
N165W: -4.93%
T160F: 92.1%
Q19L: 48.3%
V78R: 14.4%
L156I: 85.1%
Q51I: -17.7%
E129T: 74.2%
E64L: 50.5%
G23Y: 25.3%
D3R: 62.7%
D153S: 1.76%
R45C: 14.5%
N85P: 3.5%
F157I: 1.16%
G23R: 58.5%
V100I: 70.1%
T135A: 21%
I105H: -14.5%
G102S: 65.3%

Study 6 — target: CCNA1, cyclin fold, Cln2 fusion (human); technique: yeast growth competition, sequencing; matrix: yeast; setting: weak parent motif; baseline: not given; reading: higher = stronger binding; endpoint: normalised enrichment score
Parent: BRCA2 docking peptide (human); PSIKRNLLNEFDR
E10W: 0.487
L7Q: 0.503
E10I: 0.0975
N9A: 0.791
R13H: 0.338
R5L: -0.0611
E10Q: 0.307
P1D: 0.439
I3A: 0.692
I3C: 1.08
D12G: 0.395
K4H: 0.466
L8F: 0.541
S2D: 0.45
R5T: 0.0478
K4F: 0.153
E10A: 0.282
P1V: 0.577
R5I: 0.408
K4G: -0.0973
I3P: 0.437
N9F: 0.11
D12Y: 0.464
E10C: 0.16
E10M: 0.0576

A few entries again (study 5):
T160F: 92.1%
Q19L: 48.3%
V78R: 14.4%
L156I: 85.1%
Q51I: -17.7%
E129T: 74.2%
E64L: 50.5%
G23Y: 25.3%
D3R: 62.7%
D153S: 1.76%
R45C: 14.5%
N85P: 3.5%
F157I: 1.16%
